Results gathered from unrelated publications.
Parts stem from different laboratories: compare values within a part only. Changes are numbered by the printed parent chain.

Sample 1 — method: protein-binding microarray; form: double-stranded DNA, one strand shown; matrix: in vitro; concentration: 250 nM; setting: 60-bp whole probe; with: salmon DNA 0.4 mg/ml; reference: random background probes; direction: higher = stronger binding; constant ends, left off below: GCCTAGCAC … GTCTTGATTCGCTTGACGCTGCTG
Target: Interferon regulatory factor 7, full length, phosphomimetic (IRF7, Homo sapiens, UniProt Q92985, residues 1-503, S101K/S471D/S472D/S475D/S476D/S477D/S483D/S484D/S487D)
Sequence of UniProt Q92985 (whole entry, unmodified, looked up): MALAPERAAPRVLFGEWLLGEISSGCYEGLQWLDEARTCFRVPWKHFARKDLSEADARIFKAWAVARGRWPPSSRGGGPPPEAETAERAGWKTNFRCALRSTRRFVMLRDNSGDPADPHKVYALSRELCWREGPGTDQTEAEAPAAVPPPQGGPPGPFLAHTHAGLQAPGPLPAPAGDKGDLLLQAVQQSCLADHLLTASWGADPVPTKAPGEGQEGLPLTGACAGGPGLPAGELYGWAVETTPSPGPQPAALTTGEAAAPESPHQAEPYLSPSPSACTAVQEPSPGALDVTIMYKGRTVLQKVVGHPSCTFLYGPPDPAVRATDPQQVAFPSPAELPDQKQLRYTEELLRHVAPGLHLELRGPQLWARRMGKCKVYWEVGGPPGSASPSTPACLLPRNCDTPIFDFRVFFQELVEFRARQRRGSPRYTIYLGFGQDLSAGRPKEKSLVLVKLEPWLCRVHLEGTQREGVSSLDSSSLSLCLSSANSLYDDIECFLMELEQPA
| Strand | log fluorescence |
| --- | --- |
| TTAGGTATCCTTTTCCTATAGTGCTAG | 2.04 z-score |
| GTAAGTTTCACTTTCCAAAGGTGCTAG | 9.99 z-score |
| GACGGTATCGACCCTGGGGACGTGCTA | -0.562 z-score |
| TTCACTTTCCAAAGCGTGAGGTGCTAG | 0.82 z-score |
| AAGTTTCTCCTTTCCAAATAGTGCTAG | 5.4 z-score |
| TTCAGTTTTCTTTTCCATTTGTGCTAG | 3.66 z-score |
| TCATTTTTGCTTACGATGCAGTGCTAG | 0.815 z-score |
| GACGAACTGAGTTTAGAGACGTGCTAG | -0.128 z-score |
| GACGGTCTCGGTTTCGGGGCGTGCTAG | 6.49 z-score |
| TCAAGTTTCTCCTTTCCACTGTGCTAG | 2.51 z-score |
| TCTCCTCTAGGTTCTCTGAGAGTGCTA | 0.372 z-score |
| TTGTCTTTTCATTTTCTTTAGTGCTAG | 1.35 z-score |
| GACGGTCTCCTTTTCCTGATGTGCTAG | 1.09 z-score |
| TCATAAATATCTTTGTTACTGTGCTAG | 0.126 z-score |
| TCACCTTCCCCTCTAGGACTGTGCTAG | 0.887 z-score |
| GACGATTTCTGTTTCGAGACGTGCTAG | 2.92 z-score |
| GACGGACTGGGGATTCGGGACGTGCTA | -0.53 z-score |
| GACGGTTTCGACAATCGGGACGTGCTA | 2.88 z-score |
| GACGATTTCGGTTTCGAGACGTGCTAG | 7.4 z-score |
| GACGAAGTGAGTTTCGAGACGTGCTAG | 3.27 z-score |
| GACGATTTCAGTATCGTGACGTGCTAG | 0.143 z-score |
| TACTTTCTTTTTTTCTTTTAGTGCTAG | 4.46 z-score |
| TTAGGTTTCGGCTCCGGTTAGTGCTAG | 3.54 z-score |

Sample 2 — method: RNA Bind-n-Seq; form: RNA; matrix: in vitro; concentration: 100 nM; reference: input RNA pool; direction: higher = stronger binding
Target: RING finger protein unkempt homolog, zinc fingers 1-6, SBP tag (UNK, Homo sapiens, UniProt Q9C0B0, residues 30-357)
Sequence of UniProt Q9C0B0 (30-357, looked up): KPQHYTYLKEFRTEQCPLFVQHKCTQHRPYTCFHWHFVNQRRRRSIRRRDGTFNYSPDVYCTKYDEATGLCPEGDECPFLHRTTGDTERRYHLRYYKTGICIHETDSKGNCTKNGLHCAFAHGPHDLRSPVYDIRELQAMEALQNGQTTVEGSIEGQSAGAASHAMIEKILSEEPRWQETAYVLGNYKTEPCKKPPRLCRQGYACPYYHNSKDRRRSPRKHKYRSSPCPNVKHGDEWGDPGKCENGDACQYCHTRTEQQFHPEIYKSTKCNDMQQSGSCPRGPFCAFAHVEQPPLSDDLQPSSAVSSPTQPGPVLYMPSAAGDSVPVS
Setting: RNA with constant flanks, vertebrate orthologous sites, ends assumed
| Strand | bound/input enrichment |
| --- | --- |
| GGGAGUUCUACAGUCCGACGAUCGAUUUUCAAUCUCUUCUCCCCUGUCCUGAUUUUAAAAGCCCUUCUUUUUUUUUCUUUUUUUAGGCAUAUGUAGUAAUAUUAGAAACAUUUAAUUUGGGAAACUUUGAUUCUUGAAAGAGACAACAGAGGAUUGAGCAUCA | 0.974 ratio |
| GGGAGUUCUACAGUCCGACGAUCCCUAUACACUUCUCAAGAGAUUUCCUUCUAAGACGCUUUGGCUAGUCCCAUAUUUAACCGUAUUUACAUAUCUAUUUUUUUCUAAGAAUGCCGCUUCCAAGGAGGCCCCUUUCAGGUUCACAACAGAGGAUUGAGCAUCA | 1.9 ratio |
| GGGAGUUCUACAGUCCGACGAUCAACUAAAGGAGUUAGCAUCUUUAUUUUUAUAUCAAAGAUAAAGGUUAUUUUGGAAAUUAUUAGGGUUUUUACAUAACUCUGAAGUCUGUUGCUUUUGUAAACAAAUCGUUCAAUCUUAGGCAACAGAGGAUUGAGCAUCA | 0.341 ratio |
| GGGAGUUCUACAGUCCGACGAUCUUUUUUAAAGUUUUUUUAAUUUAAUUUUUCCUUUUGGGGGUUAAAGUUUGCUCUACCAAAUAGUGAUUGUAACCAAUUGAUCUGUUUUGGAUGUUGCUAUAGUGACAUGCAGUUAUAUAUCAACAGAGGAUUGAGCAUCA | 0.758 ratio |
| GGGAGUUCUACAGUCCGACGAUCUUCGCUGAGCGGCAGCCUGCCAUCAGUGGCCGACUCCCACUCCAGCCACUUCUCUGAGUUCAGCUGCUCCGACCUGGAGAGCAUGAAGACCUCGUGUAGCCACGGCUCCAGCGGUGGCGACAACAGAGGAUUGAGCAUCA | 0.248 ratio |
| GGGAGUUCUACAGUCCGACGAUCACCCCAGUGUGUGUACGUUCUUCACAUUCCUUUCUGUUGUGUUUGGGAGAAAAAGACUUCUCCGACUUUUCGAAGGUUCUCGAUUUAAUUCCAUGUUGUUUGGUUGCAUGAAGUUGCCCUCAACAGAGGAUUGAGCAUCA | 0.225 ratio |
| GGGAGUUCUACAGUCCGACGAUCCUUUUAAUUGAUGAUGUCUGUAAAUGUAUAUUGAGAGAAUUGAAGUAUUUAUAAACAGAGUGAUUUAUUUAAGGAAAGAAAAGCUCAUUCCUCUUUCACAUGGUGGUCUGUGUUAAUUCCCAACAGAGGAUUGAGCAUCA | 1.27 ratio |
| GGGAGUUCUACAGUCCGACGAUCAAUAGGUUUAAGCUUGUUUGCACAGUUUUUUUCCUCCAUUGGAGAUGGAAUUCAUUGCCUUAGGUCUUUUUAAUAGUAUAUUGUUAUUGUUGGGCUGGCUCUAUGCUUGAAAACCAGUUUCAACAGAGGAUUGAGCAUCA | 1.94 ratio |
| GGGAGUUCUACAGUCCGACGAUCAACAACCCAAGGGUUCAGGACUGGUUUUACAAAUAUACCAAGUAGAUAUGGAACUAACAAUAGAAUUGGACAACCAAGACCAUGACGUACUGUGAUUUAUUUUUAUGAGGAAUAUGGACUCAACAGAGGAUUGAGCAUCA | 0.676 ratio |
| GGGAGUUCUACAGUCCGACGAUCUAAUGUGUCUUUAUUUAUUGAAGGUAGUUUUGUGCAAAGGACUGUGUUAGAUUUAAAAAUUAGGGGAUUAAUUCCUUUUUGUUGUGUUGCUUUUGUUAUUGAAAAUAAAUAGAAUUUUGUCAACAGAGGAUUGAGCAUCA | 2.12 ratio |
| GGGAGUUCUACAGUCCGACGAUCCAGCUGAUUCACUCAUUGGGAGAGCUGCACAUAUAGCUGUUCUUGAUUCGGAAAUAUUUUUAGAGAAAUUCUUUCUGGUUGCUGCCCUCAAAUAUUUCCAGUAGGAUAAAAACAUUGUUACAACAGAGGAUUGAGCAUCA | 1.26 ratio |

Sample 3 — method: RNA Bind-n-Seq; form: RNA; matrix: in vitro; concentration: 365 nM; reference: no-protein control; direction: higher = stronger binding
Target: RNA binding protein fox-1 homolog 2, RRM domain, GST-SBP tag (RBFOX2, Homo sapiens, UniProt O43251-10, residues 100-194)
Setting: natural RNA segment, single round, ends assumed
Target sequence (chain): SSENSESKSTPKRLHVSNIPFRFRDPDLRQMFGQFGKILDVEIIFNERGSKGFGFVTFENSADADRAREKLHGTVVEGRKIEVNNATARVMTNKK
| Strand | RBNS enrichment (R) |
| --- | --- |
| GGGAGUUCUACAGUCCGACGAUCGGAGAAGCGCAUCUACCGGGUGCCUGUUUUCACAGCGCCCUUCUGCCAGGCCCUGCUGGAAGAGCUGGAGCACUUCGAGCAAUCGGACAUGCCUAAGGGGAGGCCCAACAUGGAAUUCUCGGGUGCCAA | 0.469 |
| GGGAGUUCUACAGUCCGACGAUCAUCCACCCGCCUCAGUCUCCCAAAGUGCUGAGAUUACAGGCAUGAGUCACUACGCCCGGCCCAUGUCUGUCUGUCUUGAUGUGUGAGCAGCAGCUGUGGUCAUUAAACCAUGGAAUUCUCGGGUGCCAA | 0.297 |
| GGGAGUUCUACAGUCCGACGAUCACAUCCCCGCUGGCUGGGGGCCUCACUCCAGGAAGGGGCUGGACUGGCUGUCCUUUCCAGUGGCCUGGCUCCGCUGUGUGGAUGGGGAGAUCGGGGCCAGAGGCAGAACCUGGAAUUCUCGGGUGCCAA | 0.525 |
| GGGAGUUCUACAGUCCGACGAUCUAACAACUGGAGAAUGGUAUUCCAGGCCCCAAGAAACUUUGCUUAGGAUUGAUUCUGAGAUGACACUGUGUGCUGGCAAGGAGCAUUGGGGGGCACAGUUGUUGUUUGGUUGGAAUUCUCGGGUGCCAA | 0.862 |
| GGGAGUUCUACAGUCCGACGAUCUACAGGGUACCUUGUGCUCUGCCCCCAGACCCAUAGCCUUAGCAGUGGGCCAACUACAAUCCUCAUCUCCUAAAGUCAUCUACAGAUGGCAGGUGGAAGAAAGUGGUUCUUGGAAUUCUCGGGUGCCAA | 0.152 |
| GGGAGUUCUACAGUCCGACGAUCUCCAAAAUUAUUAAAUUUAUAAUUGUGCAAUUCUGUAAUUUCCCAAGGCAUAAGUAAUAUGACCCUACUGUCAGCUAGAUGUCUUAUCUUCAAAGAGAGUAUGCAUUAAUUGGAAUUCUCGGGUGCCAA | 0.66 |
| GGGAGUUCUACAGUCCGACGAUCCAUAUGUGAAACCAGUCUCUUGUGGAGAUUGGAAAUCCUCCCUGAUAUUUGGGCAGAGCCUAAACGUGCAUGCUUGUCACUCAAACACCAGAAGUUUGAAUCAGAGGUCUUGGAAUUCUCGGGUGCCAA | 4.62 |
| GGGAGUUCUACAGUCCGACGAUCAGCAACUUCCUGGGAAGCUAAUUUAUUUGUCUAAAGGGUGGUGUGGGCAUCACCACCCUUGUUUGAUCUGCCUUGGAUUUCCUCUUGGAGCUUAUGUGCAGAUAGAGGUUUGGAAUUCUCGGGUGCCAA | 1.1 |
| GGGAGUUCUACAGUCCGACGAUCGAGCUGAGCAUUGAUGGGGAUGGGGGUGGUUUGGGAAUAGAAACUUGUUCUUGCAUGAGAUGGCUUUGGUUGUCCCAGUACUCCAGUCUCUCCCUUCCCUUACCUGGCCCUGGAAUUCUCGGGUGCCAA | 1.62 |

Sample 4 — target: CCNA2, cyclin fold, Cln2 fusion (human); method: yeast growth competition, sequencing; matrix: yeast; setting: strong parent motif; reference: not given; direction: higher = stronger binding
Starting sequence: CDC6 docking peptide (human); TLKGRRLVFDNQL; partner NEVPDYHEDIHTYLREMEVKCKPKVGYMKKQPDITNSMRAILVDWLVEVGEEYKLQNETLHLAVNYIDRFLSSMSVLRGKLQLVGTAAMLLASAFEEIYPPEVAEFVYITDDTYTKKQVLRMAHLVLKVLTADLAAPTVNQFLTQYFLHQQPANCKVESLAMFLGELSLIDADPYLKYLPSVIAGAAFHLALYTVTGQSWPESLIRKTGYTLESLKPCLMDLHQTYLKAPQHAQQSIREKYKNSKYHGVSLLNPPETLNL
| Variant | normalised enrichment score |
| --- | --- |
| TLKGVRLVFDNQL [R5V] | 0.837 |
| TLIGRRLVFDNQL [K3I] | 2.55 |
| TQKGRRLVFDNQL [L2Q] | 2.34 |
| TLGGRRLVFDNQL [K3G] | 0.84 |
| TLKGRRLVFDNQV [L13V] | 3.62 |
| TLMGRRLVFDNQL [K3M] | 1.57 |
| TLKGRRRVFDNQL [L7R] | 0.772 |
| TLWGRRLVFDNQL [K3W] | 1.03 |
| TLKGHRLVFDNQL [R5H] | 0.214 |
| TKKGRRLVFDNQL [L2K] | 4.21 |
| TTKGRRLVFDNQL [L2T] | 2.87 |
| TLKGRRLVFDNHL [Q12H] | 3.24 |
| TLKKRRLVFDNQL [G4K] | 2.21 |
| TLKGRRPVFDNQL [L7P] | 0.534 |
| TVKGRRLVFDNQL [L2V] | 3.13 |
| TLKGRRLVFANQL [D10A] | 1.11 |
| TLKGRRLVFDNCL [Q12C] | 3.5 |
| TLKGRRKVFDNQL [L7K] | 1.35 |
| TLKGRRLVEDNQL [F9E] | 0.54 |
